Published values from different studies.
Each numbered part is a random draw from the data of one study; scales do not carry over between parts. Values joined by “and” are separate records of one study, mostly repeats; a detail may differ. Numbers after ± are the reported error.
Sequence of UniProt P9WI81 (whole entry, looked up): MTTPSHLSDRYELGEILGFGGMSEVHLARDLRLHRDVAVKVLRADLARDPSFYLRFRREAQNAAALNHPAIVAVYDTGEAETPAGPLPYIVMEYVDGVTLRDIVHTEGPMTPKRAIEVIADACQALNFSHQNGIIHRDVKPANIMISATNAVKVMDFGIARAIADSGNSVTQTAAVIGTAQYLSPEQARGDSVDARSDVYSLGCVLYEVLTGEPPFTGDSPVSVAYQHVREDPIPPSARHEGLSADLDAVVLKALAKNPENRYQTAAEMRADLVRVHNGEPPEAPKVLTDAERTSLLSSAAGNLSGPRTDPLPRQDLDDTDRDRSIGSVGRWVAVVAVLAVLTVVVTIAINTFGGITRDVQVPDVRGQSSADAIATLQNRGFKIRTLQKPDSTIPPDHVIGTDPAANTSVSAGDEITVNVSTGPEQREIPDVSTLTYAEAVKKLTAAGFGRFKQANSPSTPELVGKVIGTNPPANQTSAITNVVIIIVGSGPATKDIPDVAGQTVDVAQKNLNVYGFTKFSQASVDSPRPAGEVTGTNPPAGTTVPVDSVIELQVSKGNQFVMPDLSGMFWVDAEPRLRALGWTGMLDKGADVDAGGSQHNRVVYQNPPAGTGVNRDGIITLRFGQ
Sequence of UniProt P41143 (whole entry, looked up): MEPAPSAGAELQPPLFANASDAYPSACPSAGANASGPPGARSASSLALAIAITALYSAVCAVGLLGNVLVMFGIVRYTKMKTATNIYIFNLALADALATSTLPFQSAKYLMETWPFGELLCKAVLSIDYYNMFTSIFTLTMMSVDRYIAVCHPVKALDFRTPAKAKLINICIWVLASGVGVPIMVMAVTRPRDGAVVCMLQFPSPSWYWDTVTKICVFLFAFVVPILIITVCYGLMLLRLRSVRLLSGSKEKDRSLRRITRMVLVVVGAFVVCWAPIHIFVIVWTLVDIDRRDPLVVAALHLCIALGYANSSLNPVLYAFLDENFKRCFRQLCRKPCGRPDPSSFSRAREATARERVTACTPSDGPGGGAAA

Block 1
Target: chymotrypsin
Observed: enzyme activity
Mode: inhibitor
Tested at: 10 µM
Setting: with DTT
SMILES	inhibition
CCCC[C@H](NC(=O)[C@@H]1[C@@H]2[C@H](CN1C(=O)[C@@H](NC(=O)NC1(CS(=O)(=O)C(C)(C)C)CCCCC1)C(C)(C)C)C2(C)C)C(=O)C(=O)NC1CC1	102%
Oc1cc2c(cc1C(c1ccc(C(F)(F)F)cc1)N1CCOCC1)OCO2 (stereo not shown)	7%
Sc1nnc(-c2ccccc2Cl)o1	1.5%
Cc1c(OCC(F)(F)F)ccnc1C[S+]([O-])c1nc2ccccc2[nH]1 (stereo not shown)	5.7%
O=C1/C(=C/c2ccc([N+](=O)[O-])cc2)CS(=O)(=O)C/C1=C\c1ccc([N+](=O)[O-])cc1	8.4%
Sc1nnc(Nc2ccccc2)s1	4.7%
CC1=CC(=O)c2ccccc2C1=O	6.6% and -1.7%

Block 2
Cell line: HEK-293T
Observed: pseudovirus infection
Method: FDA-approved drug library counter-screen
Organism: VSV pseudotyped with VSV-G
Tested at: 10 µM
Time: 16 h
Baseline: vehicle-treated
SMILES	GFP-positive cells [%]
COC(=O)[C@H]1[C@H]2C[C@@H]3c4[nH]c5cc(OC)ccc5c4CCN3C[C@H]2C[C@@H](OC(=O)c2cc(OC)c(OC)c(OC)c2)[C@@H]1OC	110
CC1(C)O[C@@H]2C[C@H]3[C@@H]4C[C@H](F)C5=CC(=O)C=C[C@]5(C)[C@@]4(F)[C@@H](O)C[C@]3(C)[C@]2(C(=O)CO)O1	85.5
CN(C)[C@@H]1C(O)=C(C(N)=O)C(=O)[C@@]2(O)C(O)=C3C(=O)c4c(O)ccc(Cl)c4[C@@H](O)[C@H]3C[C@@H]12	113
CC(=O)OCC(=O)[C@@]1(OC(C)=O)[C@@H](C)C[C@H]2[C@@H]3C[C@H](F)C4=CC(=O)C=C[C@]4(C)[C@@]3(F)[C@@H](O)C[C@@]21C	111
CC(CN1c2ccccc2Sc2ccccc21)N(C)C (stereo not shown)	127
COC(=O)[C@@H]1CC2=CC(=O)CC[C@]2(C)[C@@]23O[C@@H]2C[C@@]2(C)[C@@H](CC[C@@]24CCC(=O)O4)[C@H]13	100
CNC(=O)c1ccccc1Sc1ccc2c(/C=C/c3ccccn3)n[nH]c2c1	65.4
CC(=O)c1ccc2c(c1)N(CCCN1CCC(CCO)CC1)c1ccccc1S2	130
C=CC1=C(C(=O)O)N2C(=O)[C@@H](NC(=O)/C(=N\OCC(=O)O)c3csc(N)n3)[C@H]2SC1	78.7
O=C(O)c1ccc(-n2nc(-c3ccccc3O)nc2-c2ccccc2O)cc1	45.3
O=c1[nH]cnc2c1ncn2[C@H]1CC[C@@H](CO)O1	114
O=C(O)c1ccccc1O	92.3
Cc1ccnc(NS(=O)(=O)c2ccc(N)cc2)n1	121
CCC(Cc1c(I)cc(I)c(N)c1I)C(=O)O (stereo not shown)	84.5
C[C@]12C=CC(=O)N[C@@H]1CC[C@@H]1[C@@H]2CC[C@]2(C)[C@@H](C(=O)Nc3cc(C(F)(F)F)ccc3C(F)(F)F)CC[C@@H]12	119
C[C@]12C=CC(=O)C=C1CC[C@H]1[C@@H]3C[C@@H](O)[C@](O)(C(=O)CO)[C@@]3(C)C[C@H](O)[C@@]12F	95.5
O=C(O)c1cc(/N=N/c2ccc(S(=O)(=O)Nc3ccccn3)cc2)ccc1O	94.4

Block 3
Host: human
Matrix: microsomes or S9
Tested at: 2 µM
Time: 0.5 h
Compound	remaining compound [%]
Cc1ccc(/N=C/N(C)/C=N/c2ccc(C)cc2C)c(C)c1	6.62
COc1cccc(Cn2nnc3cc(C(=O)N4CCC5(CC4)OCCO5)ccc32)c1	37.1
CC(C)n1c(C(=O)NCc2nnc3ccccn23)cc2cc(Cl)ccc21	57.3

Block 4
Target: UDP-N-acetylglucosamine--peptide N-acetylglucosaminyltransferase 110 kDa subunit (OGT, Homo sapiens, UniProt O15294)
Sequence of UniProt O15294 (whole entry, looked up): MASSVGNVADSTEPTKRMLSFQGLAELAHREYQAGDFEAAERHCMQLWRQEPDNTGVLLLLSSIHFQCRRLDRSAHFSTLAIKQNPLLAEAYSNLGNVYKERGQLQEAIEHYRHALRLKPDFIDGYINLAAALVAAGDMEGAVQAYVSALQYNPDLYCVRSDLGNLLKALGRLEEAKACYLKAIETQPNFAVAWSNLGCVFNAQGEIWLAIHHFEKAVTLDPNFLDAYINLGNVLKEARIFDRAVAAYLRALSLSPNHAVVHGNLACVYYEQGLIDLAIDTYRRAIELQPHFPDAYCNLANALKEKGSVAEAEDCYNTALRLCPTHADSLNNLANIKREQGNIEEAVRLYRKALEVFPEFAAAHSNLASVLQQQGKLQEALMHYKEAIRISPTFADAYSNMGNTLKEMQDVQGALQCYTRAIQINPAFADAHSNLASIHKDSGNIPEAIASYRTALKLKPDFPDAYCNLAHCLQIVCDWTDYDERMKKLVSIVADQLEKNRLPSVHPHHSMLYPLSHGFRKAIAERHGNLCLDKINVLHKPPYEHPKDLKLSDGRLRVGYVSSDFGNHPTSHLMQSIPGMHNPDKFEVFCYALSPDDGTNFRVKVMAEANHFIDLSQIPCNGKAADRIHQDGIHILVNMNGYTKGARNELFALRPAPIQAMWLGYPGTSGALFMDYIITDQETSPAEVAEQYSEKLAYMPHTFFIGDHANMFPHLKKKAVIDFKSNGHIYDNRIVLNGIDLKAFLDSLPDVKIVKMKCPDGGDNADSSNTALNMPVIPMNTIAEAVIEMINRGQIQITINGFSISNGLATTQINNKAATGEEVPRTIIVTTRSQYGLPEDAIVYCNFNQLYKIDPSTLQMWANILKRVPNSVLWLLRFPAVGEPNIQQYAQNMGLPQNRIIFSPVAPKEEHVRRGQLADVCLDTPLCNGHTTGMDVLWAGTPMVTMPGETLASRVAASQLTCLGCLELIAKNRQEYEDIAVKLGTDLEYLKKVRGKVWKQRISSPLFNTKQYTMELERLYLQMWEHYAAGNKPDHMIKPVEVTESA
Observed: binding
Method: phage display NGS
Form: peptide
Tested at: concentration not given
Baseline: input library
Molecule	enrichment fold change
SRQHHHYVQAMPYRD	2.38
HWNEGTHSTWFPHMH	4.6
HSWYGPTHHSVHDTT	5.27
QVFPPEYWIEYNMV	2
HALHHGSDLHYVVRT	9.14
RDTEIIFLPQYIIGY	14.9
SSYMPQYQISFLKKE	3.49
HDLHSKHGNTQPHDH	3.1

Single results of other studies
Structure (SMILES)	target	assay	system	setting	measurement	result
CCN(CC)C(=O)c1ccc(C2=CC3(CCNCC3)Oc3cccc(O)c32)cc1	Delta-type opioid receptor, with Gi3 (OPRD1, Homo sapiens, UniProt P41143)	–	human cells	–	Emax	111 ± 2%
CNCc1ccccc1-c1csc([C@@H](C)Nc2nc(C)nc3cc(OC)c(OC)cc23)c1	Serine/threonine-protein kinase PknB (pknB, Mycobacterium tuberculosis, UniProt P9WI81)	cell-free assay, competition with immobilised ligand	–	1 µM	remaining binding	76%

Repeated from above (block 1):
SMILES	inhibition
Sc1nnc(-c2ccccc2Cl)o1	1.5%
Cc1c(OCC(F)(F)F)ccnc1C[S+]([O-])c1nc2ccccc2[nH]1 (stereo not shown)	5.7%
O=C1/C(=C/c2ccc([N+](=O)[O-])cc2)CS(=O)(=O)C/C1=C\c1ccc([N+](=O)[O-])cc1	8.4%
